# Measured values collected from several papers.
# A part holds a random share of what one study measured. Changes are numbered by the printed parent chain.

# Sample 1
# Target: RING finger protein unkempt homolog, zinc fingers 1-6, SBP tag (UNK, Homo sapiens, UniProt Q9C0B0, residues 30-357)
# Chain of UniProt Q9C0B0 (30-357, looked up): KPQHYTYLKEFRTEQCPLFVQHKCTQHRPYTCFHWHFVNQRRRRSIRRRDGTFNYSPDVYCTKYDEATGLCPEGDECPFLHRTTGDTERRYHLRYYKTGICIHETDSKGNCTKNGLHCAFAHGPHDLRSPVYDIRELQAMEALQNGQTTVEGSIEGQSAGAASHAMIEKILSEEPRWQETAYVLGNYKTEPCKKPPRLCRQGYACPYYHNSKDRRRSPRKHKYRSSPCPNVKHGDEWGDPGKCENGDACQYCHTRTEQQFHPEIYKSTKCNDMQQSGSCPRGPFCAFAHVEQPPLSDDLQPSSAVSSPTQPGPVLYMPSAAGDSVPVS
# Technique: RNA Bind-n-Seq
# Molecule type: RNA
# Sample: in vitro
# Tested at: 100 nM
# Notes: RNA with constant flanks, ends assumed
# Baseline: input RNA pool
# Reading: higher = stronger binding
# Shared flanks, not repeated: GGGAGUUCUACAGUCCGACGAUC … CAACAGAGGAUUGAGCAUCA
Sequence,bound/input enrichment
GUGGGGAUGAGGGUGGGAUGGGAAAGGGAUGUAUGGAUGUUAUUGGCAUUUUUAAGUGUUCCGAGUUUUUUGGGGUUUGGGGUGGUUUUUUUUCCUUGUUUUCCUUUUUUCCUUUUAAUU,1.07 ratio
GUGACUUUGGAAGUCCGCCGUGUCUCAUUGCAGAUAAUUUUCCGCUCCGGGCCUGGUGGCCCGGUCGGUUCUCUCCUUUCCAGUCGGAGACCUCUGCCGCAAACAUGCUCCGCCAGAUCA,0.384 ratio
UCAGUCCCCUGGGCCGGGACAGAUUUUUUUUAACGUCUUGAAACUUAAACUCUGUGCUUGCCGGAUACUGUAACCUUUUUGUCUUUUUUUUUUUUUUUUUUUUUAAACCUCCACCUCCAG,2.34 ratio
AUUUAAAAUGCCGUCCGUUAUAUUUAAUGACCUCAUUCCUAAGUUCCUUUUUCGUUAAUGCCGCUUUCAUUUCUGUUAUUGCUGUUUGAAUAAUAUGAUUAAACCGAAGGUUUGUGCCAG,0.357 ratio
UCCCCAUUACCCCUAAAGCCGAACAUUUUUUAAAUUGUGUUGCCACCACUUCUAAAAAUUCCGCAAUAUCCGAACCGGAUACCCGUGAAGUAAGAAAUUUUGCUUGUUGUUUUGCAAACC,0.677 ratio
GUGUUUUGUACAGGGCAUUCUCUGUACCCGUUUGUCGUGGUUAUAAAACAAUCCGCAGAACCGCCUACAUUUGUAUUUAUUUUCUAUUCCAUACUUCUGCCCACGUUGUUUUCUCUCAAA,0.715 ratio

# Sample 2
# Target: CEP164, C-terminal peptide (human)
# Technique: DHFR complementation, deep sequencing
# Sample: yeast
# Notes: single substitutions, model-inferred values
# Baseline: wild type
# Reading: higher = weaker binding
# Starting sequence: PDZK1, PDZ domain 2 (human); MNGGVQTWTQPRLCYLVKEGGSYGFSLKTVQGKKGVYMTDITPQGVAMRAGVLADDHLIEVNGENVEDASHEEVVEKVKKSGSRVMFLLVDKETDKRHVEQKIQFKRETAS; partner HNRVKVYRF
Variant,binding free energy change
S83A,-0.0117 kcal/mol
K102R,-0.139 kcal/mol
H71G,-0.646 kcal/mol
E19S,0.124 kcal/mol
K28F,-0.125 kcal/mol
S81Q,0.766 kcal/mol
F87W,2.09 kcal/mol
F105Q,-0.273 kcal/mol

# Sample 3
# Target: RNA binding protein fox-1 homolog 2, RRM domain, GST-SBP tag (RBFOX2, Homo sapiens, UniProt O43251-10, residues 100-194)
# Technique: RNA Bind-n-Seq
# Molecule type: RNA
# Sample: in vitro
# Tested at: 365 nM
# Notes: natural RNA segment, single round, ends assumed
# Baseline: no-protein control
# Reading: higher = stronger binding
# Shared flanks, not repeated: GGGAGUUCUACAGUCCGACGAUC … UGGAAUUCUCGGGUGCCAA
# Residues (chain): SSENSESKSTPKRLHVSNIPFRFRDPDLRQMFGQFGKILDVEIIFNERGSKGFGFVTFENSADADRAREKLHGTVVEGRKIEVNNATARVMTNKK
Sequence,RBNS enrichment (R)
CGUGGUCCAAGAUUCAAAAAUCCUAUUGAUAGUGGCCAUUUUAAUCAUUGCCAUCGUGUGCUUGUUUCAUCCAGUGUUAUGCACUUUCCACAGUUGGACAUGGUGUUAGU,1
UUGUUUACUGGUUAUCUCUAUUUAAGGAAAAAAAAAUAAAAUAAAACAUUUUGGAUUUUCAUAUGUGUCUGAUAAGUGGUUGAAUAGUCGUUUGGCGCUGUUGUAUGGUG,0.873
AAGGUUAAUAGCACCGGGGAACAAUUUCUCUGGGUGAGAAUUGGGACUCUGUUGCUGGUCUUCUCAGUUCAUUUCCUGAGGUGGAUUUACUGAGAGAAGGUGAAAUAAAG,0.49
GAACACUGGCAACAUGGAAUGUAGAGAGCUGAUGUCUUCCCCCUCAUAGAGGCCAUUGGCUUCCUUUGUAUAAGGAGAGGGAGAAGUGAUUCUGGAAGGAGAAGUUGGUA,1.1
AAUGGAUGCAUCAAGUUUCUAAAUUUUAUUUCCUGCCUAAAGAAACCAAAUUGUCCCUCAGCAUCCUUGUCUCCAGCCCUGAGGAAACACCUAAAGAGAAGCAAUGGCUC,0.453
AAGGACAAAUAAAUAAUUGUGGUUGUGUUCUUAAUGGGGACGAGCAGACACACUGAUCUGAACAUCUGGCCCAAGUGAAGCAUGGCAUAUAGUGCCCUUGGAAGAAAAUU,1.68
AGCUCUCCCUGAGGCCAGAGGCGGGGCCUGGGCCGGGAGCCCAGGGGAAGGCCAGGCUGGACCCCGGCUCCACACCCACAUCCAGCCUGCAGGCCUCUCUGCAGUCCUCU,0.215
AUGUUAGAGGCUCACACUUUAGCUUGAAAGGAGUUGAUGAAUUAAUUUUUUAAAGGGAACUUUUUACAUGACGUUUGGAAUAACAGCAUAUUGCUGACCAGUCAGUGUCA,1.23

# Other studies, line by line
# Starting sequence: viral docking peptide; CKVKRKLFGSENI
Variant,target,assay,test system,setting,scale,quantity,value
V3A,"CCNE2, cyclin fold, Cln2 fusion (human)","yeast growth competition, sequencing",yeast,strong parent motif,"baseline: not given, higher = stronger binding",normalised enrichment score,3.61

# For quick reference, copied from above (sample 3):
Sequence,RBNS enrichment (R)
UUGUUUACUGGUUAUCUCUAUUUAAGGAAAAAAAAAUAAAAUAAAACAUUUUGGAUUUUCAUAUGUGUCUGAUAAGUGGUUGAAUAGUCGUUUGGCGCUGUUGUAUGGUG,0.873
AAGGUUAAUAGCACCGGGGAACAAUUUCUCUGGGUGAGAAUUGGGACUCUGUUGCUGGUCUUCUCAGUUCAUUUCCUGAGGUGGAUUUACUGAGAGAAGGUGAAAUAAAG,0.49
